Published values from different studies.
Protocols differ between the studies behind these lines. Values joined by “and” are separate records of one study, mostly repeats; a detail may differ. ± gives the spread as reported.

Compound = CC1(COc2ccc3c(c2)ncn3-c2ccc3cccc(N4CCC(N)CC4)c3n2)COC1; system = human patients, recurrent/progressive HGG or DIPG, serum; conditions = oral, 100 mg/m^2, day 1, median; CL/F = 56.4 L/h/m²
Compound = C#Cc1cccc(Nc2ncnc3cc(OCCOC)c(OCCOC)cc23)c1; system = human; conditions = oral; CL/F = 5.82 L/h
Compound = CC(C)c1nc(N(C)S(C)(=O)=O)nc(-c2ccc(F)cc2)c1/C=C/[C@@H](O)C[C@@H](O)CC(=O)O; system = healthy human subjects, plasma; conditions = oral, 10 mg, arithmetic mean, with: none; CL/F = 291 L/h
Compound = Cn1c(=O)oc2ccc(-c3ccc(C[C@@H](C#N)NC(=O)[C@@H]4CNCCCO4)cc3)cc21; system = human, mild renal impairment, plasma; conditions = oral, 25 mg single dose, mean; CL/F = 7.72 L/h
Compound = N#Cc1ccc2c(c1)[C@H]1CCCN(C(=O)c3ccc4[nH]cnc4c3)[C@H]1C2; system = human; conditions = 80 mg once daily, day 1; CL/F = 2.67 L/h
Compound = C[C@@H](Oc1ccc(S(C)(=O)=O)cc1C(=O)N1C[C@@H]2C[C@]2(c2cc(C(F)(F)F)on2)C1)C(F)(F)F; system = healthy human volunteers, fasted; conditions = oral, 10 mg single, geometric mean; CL/F = 4.97 L/h
Compound = CCCn1cc(C)c2c(=O)[nH]c(-c3cc(S(=O)(=O)N4CCN(CC)CC4)ccc3OCC)nc21; system = human; conditions = oral, 100 mg, with: alcoholic beverage 0.5 g/kg; CL/F = 459 ± 260 L/h
Compound = CCn1cc(C(=O)N2CCOCC2)c(=O)c2cc(NC3Cc4ccccc4C3)cnc21; system = human female, fed, plasma; conditions = oral, 900 mg twice daily, day 1, tablet, arithmetic mean; CL/F = 22.3 L/h
Compound = Cc1ccc(C)c(OCCCC(C)(C)C(=O)O)c1; system = human; conditions = oral, dose not given, after lopinavir/ritonavir, geometric mean, with: lopinavir/ritonavir; CL/F = 9.8 L/h
Compound = COc1cc(N2CCC3(CCN(C)CC3)CC2)ccc1Nc1ncc(Cl)c(Nc2ccccc2P(C)(C)=O)n1; assay = population PK final model; system = human; conditions = outliers removed; CL/F = 18.9 L/h
Compound = C=CC(=O)NC1CCN(c2ncc3ncnc(Nc4ccc(Oc5ccc6c(c5)ncn6C)c(C)c4)c3n2)CC1; system = human, plasma; conditions = oral, 240 mg single dose, fed, geometric mean; CL/F = 7.44 L/h
Compound = Cc1ncnc2c1ccn2[C@@H]1C[C@H](Oc2cc(C(F)F)c(F)c3c2CNCC3)[C@@H](O)[C@H]1O; system = human; conditions = 4 mg twice daily, multiple dose, geometric mean; CL/F = 9.16 L/h
Compound = CN[C@H]1CC[C@@H](c2ccc(Cl)c(Cl)c2)c2ccccc21; system = human; conditions = oral; CL/F = 80.1 L/h
Compound = CCN1CCN(Cc2ccc(Nc3ncc(F)c(-c4cc(F)c5nc(C)n(C(C)C)c5c4)n3)nc2)CC1; system = fasted healthy human subjects; conditions = oral, 150 mg, 3 × 50 mg capsule; CL/F = 48 L/h
Compound = C[C@@H](Cn1ccc(-c2ccc(C#N)c(Cl)c2)n1)NC(=O)c1cc([C@@H](C)O)[nH]n1; system = human, fasted, plasma; conditions = oral tablet, 300 mg, geometric mean; CL/F = 62 L/h
Compound = CCN1CCN(Cc2ccc(Nc3ncc(F)c(-c4cc(F)c5nc6n(c5c4)[C@H](C)CCC6)n3)nc2)CC1; system = human, Phase Ib patients, plasma; conditions = 300 mg, multiple doses, mean, with: fulvestrant; CL/F = 43.6 L/h
Compound = C[C@@H](Oc1ccc(S(C)(=O)=O)cc1C(=O)N1C[C@@H]2C[C@]2(c2cc(C(F)(F)F)on2)C1)C(F)(F)F; system = healthy young humans; conditions = oral, 50 mg single dose; CL/F = 5.34 L/h
Compound = C[C@H](Oc1ccc(Br)cc1-c1ccon1)C(=O)O; system = healthy male humans, plasma; conditions = oral, 600 mg once daily, day 10; CL/F = 5.1 L/h
Compound = CC(C)c1nc(N(C)S(C)(=O)=O)nc(-c2ccc(F)cc2)c1/C=C/[C@@H](O)C[C@@H](O)CC(=O)O; system = human, plasma; conditions = 20 mg, day 2, mean, alone; CL/F = 498 L/h
Compound = N#CCNC(=O)c1ccc(-c2ccnc(Nc3ccc(N4CCOCC4)cc3)n2)cc1; assay = population PK model; system = human; CL/F = 64.7 L/h
Compound = Cn1nnc2c(C(N)=O)ncn2c1=O; system = human patients, plasma; conditions = oral, 30 mg/m2, day 5, dose level DL4, median, with: talazoparib 600 µg/m2; CL/F = 6.3 L/h/m2
Compound = C[C@@H](N)c1cc(Cl)ccc1Cn1c(=S)[nH]c(=O)c2[nH]ccc21; system = human, severe renal impairment, plasma; conditions = oral, 2.5 mg, geometric mean, single dose; CL/F = 10.8 L/h
Compound = O=C(O)CCC(=O)O.[2H]C([2H])([2H])Oc1cc(C)c2[nH]ccc2c1CN1CC[C@@H](C2CC2)C[C@H]1c1ccc(C(=O)O)cc1; assay = LC-MS/MS, mean; system = human, plasma; conditions = 600 mg, single dose, fasting; CL/F = 2.78 L/h
Compound = CC1(C)CC[C@]2(NC(=O)C(C)(F)F)CC[C@]3(C)[C@H](C(=O)C=C4[C@@]5(C)C=C(C#N)C(=O)C(C)(C)[C@@H]5CC[C@]43C)[C@@H]2C1; system = human, plasma; conditions = oral, 150 mg single dose, alone, geometric mean; CL/F = 104 L/h
Compound = Cc1ccc(=O)n(-c2ccccc2)c1; system = healthy human; conditions = oral, 600 mg single, alone; CL/F = 15.2 L/h
Compound = CCN(CCO)CCCC(C)Nc1ccnc2cc(Cl)ccc12 (stereo not drawn); system = human, whole blood; conditions = oral, 800 mg; CL/F = 7.48 L/h and 6.24 L/h
Compound = CN1C(=O)[C@@H](NC(=O)c2nnc(Cc3ccccc3)[nH]2)COc2cccnc21; system = healthy human, fasted, plasma; conditions = oral, 400 mg single dose, geometric mean; CL/F = 6.96 L/h
Compound = Cc1cc(/C=C/C#N)cc(C)c1Nc1ccnc(Nc2ccc(C#N)cc2)n1; system = human, haemodialysis patients; conditions = oral, steady state, fixed-dose combination; CL/F = 17.7 L/h
Compound = C[C@@H](Oc1cc(-c2cnn(C3CCNCC3)c2)cnc1N)c1c(Cl)ccc(F)c1Cl; system = human patients, plasma; conditions = oral, cycle 2 day 1, median, with: avelumab; CL/F = 75 L/h
Compound = O=C(Nc1nc2cccc(-c3ccc(CN4CCS(=O)(=O)CC4)cc3)n2n1)C1CC1; assay = population PK model; system = human, plasma; conditions = oral; CL/F = 35 L/h
Compound = Cc1cc(C)c(CNC(=O)c2cc(Cl)c3c(c2C)O[C@@](C)([C@H]2CC[C@H](N(C)C)CC2)O3)c(=O)[nH]1; assay = population PK model; system = human; CL/F = 520 L/h
Compound = C[C@H]1Oc2cc(cnc2N)-c2c(nn(C)c2C#N)CN(C)C(=O)c2ccc(F)cc21; system = human patients, plasma; conditions = oral, cycle 2 day 1, mean, with: avelumab; CL/F = 18 L/h
Compound = Cc1ccc(C(=O)NC2CC2)cc1-n1ncc(C(=O)c2cccc(C#N)c2)c1N; system = human; conditions = mass balance study; CL/F = 3.9 L/h
Compound = COc1ccc([C@@H]2CN(C(=O)[C@@H](O)CO)C[C@@]2(C)[C@@H](C)O)cc1OC1CN(c2ccc(C)cn2)C1; system = healthy human; conditions = oral, 20 mg; CL/F = 4.22 L/h
Compound = CCCOc1ccc(NC(=O)CN2CCN(C)CC2)cc1-c1nc(CC)c(CC)c(=O)[nH]1; system = human, fasting, plasma; conditions = oral, 10 mg, with: alcohol 0.5 g/kg; CL/F = 17.5 ± 2.78 L/h
Compound = Cn1cncc1[C@@](N)(c1ccc(Cl)cc1)c1ccc2c(c1)c(-c1cccc(Cl)c1)cc(=O)n2C; system = human patients; conditions = oral, 300 mg/m2, first dose, cycle 1, initial cohort, median; CL/F = 286 mL/min/m2
Compound = C#C[C@]1(CO)O[C@@H](n2cnc3c(N)nc(F)nc32)C[C@@H]1O; system = human, plasma; conditions = oral, 200 mg, single dose, geometric mean; CL/F = 27.3 L/h
Compound = [H]/N=C(/N)c1ccc(NCc2nc3cc(C(=O)N(CCC(=O)O)c4ccccn4)ccc3n2C)cc1; system = healthy human subjects, plasma; conditions = oral, 150 mg, dabigatran etexilate alone, arithmetic mean; CL/F = 171 L/h
Compound = COC(=O)N[C@@H](C)CNc1nccc(-c2cn(C(C)C)nc2-c2cc(Cl)cc(NS(C)(=O)=O)c2F)n1; system = human, plasma; conditions = 50 mg, single dose, arithmetic mean, with: posaconazole 400 mg twice daily; CL/F = 9.2 L/h and 9.15 L/h
Compound = NC(=S)NN=Cc1ncccc1N; system = human, plasma; conditions = intravenous, 50 mg, geometric mean; CL/F = 62.1 L/h
Compound = CNC(=O)n1ccc2cc(Oc3ccnc(NC(=O)c4ccc(C5CCN(CCO)CC5)cc4)c3)c(OCCOC)cc21; system = healthy human, plasma; conditions = oral, 35 mg, geometric mean, alone; CL/F = 324 L/h
Compound = N#CN1C[C@H](n2nc(-c3ccc(Oc4ccc(Cl)cn4)cc3)c(C(N)=O)c2N)CCC12CC2; system = human fed; conditions = oral, 600 mg; CL/F = 34.8 ± 18.6 L/h
Compound = Cn1cc(-c2cn3nccc3c(-c3cnn([C@]4(CC#N)C[C@@H](C#N)C4)c3)n2)cn1; system = healthy human fed; conditions = dose not given, day 10, once daily dosing; CL/F = 80.6 L/h
Compound = COC(=O)N[C@H](C(=O)N1CCC[C@H]1c1nc(-c2ccc(-c3ccc(-c4c[nH]c([C@@H]5CCCN5C(=O)[C@@H](NC(=O)OC)C(C)C)n4)cc3)cc2)c[nH]1)C(C)C; assay = population PK full model; system = human; CL/F = 5.14 L/h
Compound = CC(C)c1nc(N(C)S(C)(=O)=O)nc(-c2ccc(F)cc2)c1/C=C/[C@@H](O)C[C@@H](O)CC(=O)O; system = human, plasma; conditions = 10 mg, geometric mean, with: vepdegestrant 200 mg; CL/F = 260 L/h

A few entries again:
Compound = CC1(C)CC[C@]2(NC(=O)C(C)(F)F)CC[C@]3(C)[C@H](C(=O)C=C4[C@@]5(C)C=C(C#N)C(=O)C(C)(C)[C@@H]5CC[C@]43C)[C@@H]2C1; system = human, plasma; conditions = oral, 150 mg single dose, alone, geometric mean; CL/F = 104 L/h
Compound = COc1cc(N2CCC3(CCN(C)CC3)CC2)ccc1Nc1ncc(Cl)c(Nc2ccccc2P(C)(C)=O)n1; assay = population PK final model; system = human; conditions = outliers removed; CL/F = 18.9 L/h
Compound = CN1C(=O)[C@@H](NC(=O)c2nnc(Cc3ccccc3)[nH]2)COc2cccnc21; system = healthy human, fasted, plasma; conditions = oral, 400 mg single dose, geometric mean; CL/F = 6.96 L/h
Compound = CCn1cc(C(=O)N2CCOCC2)c(=O)c2cc(NC3Cc4ccccc4C3)cnc21; system = human female, fed, plasma; conditions = oral, 900 mg twice daily, day 1, tablet, arithmetic mean; CL/F = 22.3 L/h
Compound = COC(=O)N[C@@H](C)CNc1nccc(-c2cn(C(C)C)nc2-c2cc(Cl)cc(NS(C)(=O)=O)c2F)n1; system = human, plasma; conditions = 50 mg, single dose, arithmetic mean, with: posaconazole 400 mg twice daily; CL/F = 9.2 L/h and 9.15 L/h
Compound = COC(=O)N[C@H](C(=O)N1CCC[C@H]1c1nc(-c2ccc(-c3ccc(-c4c[nH]c([C@@H]5CCCN5C(=O)[C@@H](NC(=O)OC)C(C)C)n4)cc3)cc2)c[nH]1)C(C)C; assay = population PK full model; system = human; CL/F = 5.14 L/h
Compound = C[C@@H](Oc1ccc(S(C)(=O)=O)cc1C(=O)N1C[C@@H]2C[C@]2(c2cc(C(F)(F)F)on2)C1)C(F)(F)F; system = healthy human volunteers, fasted; conditions = oral, 10 mg single, geometric mean; CL/F = 4.97 L/h
